# Experimental data of several laboratories.
# Parts stem from different laboratories: compare values within a part only.

# Sample 1
# Target: RING finger protein unkempt homolog, zinc fingers 1-6, GST-SBP tag (UNK, Homo sapiens, UniProt Q9C0B0, residues 30-357)
# UniProt Q9C0B0, sequence (30-357, looked up): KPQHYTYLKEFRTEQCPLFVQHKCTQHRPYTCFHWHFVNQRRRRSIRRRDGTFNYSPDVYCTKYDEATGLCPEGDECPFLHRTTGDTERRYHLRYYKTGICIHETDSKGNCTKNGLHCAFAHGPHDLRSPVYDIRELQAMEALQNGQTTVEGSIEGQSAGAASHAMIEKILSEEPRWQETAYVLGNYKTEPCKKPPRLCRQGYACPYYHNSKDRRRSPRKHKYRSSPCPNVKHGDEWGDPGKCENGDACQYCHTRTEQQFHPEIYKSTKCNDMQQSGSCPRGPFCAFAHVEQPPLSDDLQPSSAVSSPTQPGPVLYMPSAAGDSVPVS
# Method: RNA Bind-n-Seq
# Molecule type: RNA
# Sample: in vitro
# Concentration: not given
# Notes: RNA with constant flanks, human and mouse sites, ends assumed
# Reference: input RNA pool
# Reading: higher = stronger binding
# Constant ends, left off below: GGGAGUUCUACAGUCCGACGAUC … CAACAGAGGAUUGAGCAUCA
Oligonucleotide,bound/input enrichment
GGUUGUCUGGUUUUGUUGUUUUUACAGGUGUUGUGGAAUAAAAACUGUAAGAAAAUUAAGUAUUUAAAAUGUUCCAAUAAAGUGGGGUUUUUUGUUAUUCUAAUAUAUUAUUGUGUACCU,1.74 ratio
UUUCCAUCUCAUGGAGACAGAGAAGAAAGUAUGAGAGAAGCUCUGUCUCCCGAUACCAGCGUUUCUGUCUUUACCUGGCAAGUGAAUAUAUAUGGACAGGGAAAGCCUUCUGUGUAUUUA,0.25 ratio
AUAGAAACCUUGAUUGGCAAAAAGCAGCAGAUCUCUCUUGCCACCCAGAUGGUUAGGAUGAUUCUGAAGAUUGAUGACAUCCGUAAGCCUGGAGAAUCUGAAGAAUAAACUGUACCAUUU,0.245 ratio
CUGAGGGACUGGACACCCCCCAGGCUCCCUGUCACAUUAGAGGCGCUGAGUGAAGAUGGUCAAAUAUGUGUGUAUUUUUUCAAAAACCUUUUAAGAAAAUACCACGUUCCCUUGUCAUGG,0.354 ratio
GAGAAUCUGGAACUAAUGUCACAGCAUGGAUGUAAUGCCUGGAAAGUAUACAAUGAAAAUCUAGUUCAUAUGAUUGAACACGCACAGAAGGAACUUCAGAAGUUAAGAAAACAUAUUCAA,0.405 ratio
AGAAGACCUCAUGAGAGAGGUAAACACCUUUGUAAAGAAUCUGUAACCAAUACCAUGAAGUUCAGGCUGUGAUCUGGGCUCCCUGACUUUCUGAAGCUAGAAAAAUGUUGUGUCUCCCAA,0.451 ratio
CCGGCCCCAGUGCCAUCCAGAAGAAAUCCCCCUGGCGGCAAGUCCAGCCUCGUCUUGGGUUAGCUCUGACUGUCCUGAACGCUGUCGUUCUGUCUGUUUCCUCCAUGCUUGUGAACUGCA,0.15 ratio
CGAUGUCCAGUUACUGUCUGUGGAGAUGUGCAUGGGCAAUUUCAUGAUCUCAUGGAACUGUUUAGAAUUGGUGGCAAAUCACCAGAUACAAAUUACUUGUUUAUGGGAGAUUAUGUUGAC,0.267 ratio
UUUAUGAUAGUUUUGUUAGGUGACAGGACCAAAUGAAAAUAUUUUAUGUUUUCUCAUCACUUUAGAUUUUAUCAUUAUGUACAUUACUGGGUUUUUAGCAUUUCCUAAUGUGAAGUUUUA,2.14 ratio
GGUGCCCCCUCAUUUGUUCGACUGUAUCAGUAUCCCAACUUUGCCGGACCUCAGGCAGCACUGGCCAAUAAAAGCUUCUUUAAAGCUGAUAAGGUUACAAUGCUGUGGAAUAAAAAAGCU,0.353 ratio
CACUGCGAAAAUUCAUUCCGCUGUAAUGUUUUCACAAUAUUUAAAGCAGAAGCACGUCAGUUAGGAUUUCCUUCUGCAUAAGGUUUUUUUGUAGUGUAAUGUCUUAAUCAUAGUCUACCA,1.49 ratio

# Sample 2
# Target: Histone acetyltransferase KAT6A, both winged helices, GST fusion (KAT6A, Homo sapiens, UniProt Q92794, residues 1-181)
# Method: protein binding microarray
# Molecule type: double-stranded DNA, one strand shown
# Sample: in vitro
# Concentration: not given
# Notes: 8-mer, flanks averaged, mean of 2 arrays, mostly near background
# Reference: not given
# Reading: higher = stronger binding
# Construct (chain): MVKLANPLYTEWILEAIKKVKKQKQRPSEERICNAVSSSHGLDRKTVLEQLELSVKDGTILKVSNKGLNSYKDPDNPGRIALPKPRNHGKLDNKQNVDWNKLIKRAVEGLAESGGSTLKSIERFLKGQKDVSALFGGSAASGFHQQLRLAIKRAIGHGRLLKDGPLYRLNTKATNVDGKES
Oligonucleotide,E-score
GAGCCATC,-0.244
CTTACCGC,0.199
TATCATGA,-0.0595
GTGACTGA,-0.0818
CCGTAAGG,0.144
CTAGTTCA,0.0226
AGAGTTGA,-0.143
GTTGCGGA,0.0999
ACTATCCA,-0.0302

# Sample 3
# Target: Interferon regulatory factor 3, full length, phosphomimetic (IRF3, Homo sapiens, UniProt Q14653, residues 1-427, S386D/S396D/S398D/S402D/T404D/S405D)
# UniProt Q14653, sequence (whole entry, unmodified, looked up): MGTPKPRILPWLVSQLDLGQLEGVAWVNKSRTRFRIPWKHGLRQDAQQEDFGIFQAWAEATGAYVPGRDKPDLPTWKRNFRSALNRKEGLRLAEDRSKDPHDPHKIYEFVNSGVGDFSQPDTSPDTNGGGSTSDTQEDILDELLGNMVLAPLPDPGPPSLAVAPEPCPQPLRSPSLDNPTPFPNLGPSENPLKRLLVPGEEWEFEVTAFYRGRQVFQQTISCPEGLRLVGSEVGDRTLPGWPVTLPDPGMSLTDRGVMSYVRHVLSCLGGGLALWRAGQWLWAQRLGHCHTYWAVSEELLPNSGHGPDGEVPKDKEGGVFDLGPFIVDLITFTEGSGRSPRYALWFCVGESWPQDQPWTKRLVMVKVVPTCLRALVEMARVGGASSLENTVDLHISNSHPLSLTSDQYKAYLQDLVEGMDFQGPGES
# Method: protein-binding microarray
# Molecule type: double-stranded DNA, one strand shown
# Sample: in vitro
# Concentration: 2540 nM top
# Notes: 60-bp whole probe
# With: salmon DNA 0.4 mg/ml
# Reference: random background probes
# Reading: higher = stronger binding
# Constant ends, left off below: GCCTAGCAC … GTCTTGATTCGCTTGACGCTGCTG
Oligonucleotide,fitted relative affinity [z-score]
TTAGGTCTCGGTATCGGTCAGTGCTAG,1.88
TTAGAACAGGGGTATCGATTAGTGCTA,-0.309
TTAGATCTCAGACGGGATTAGTGCTAG,-0.216
ACCCTGCCTAAAGCTAGTTTGTGCTAG,0.04
TCAGTTCTTTTTTTCAAACTGTGCTAG,2.64
GACGGTACCGGGTATCGGGACGTGCTA,0.382
GACGGACTGGGGTTTCGGGACGTGCTA,0.654
GACGGACAGGGGTATCGGGACGTGCTA,-0.545
CTCCCTCTGTAAGTCAGCACGTGCTAG,0.264

# Mixed results
Substance,target,test,system,conditions,scale,endpoint,value
"PhoQ, residues 284 288 289 292 302 303 SVHLDV","PhoP, residues 12 14 15 18 19 HEGLL (Escherichia coli, UniProt P23836)","Sort-seq, item: YFP reporter",E. coli,"PhoQ-PhoP variant library, with: 10 µM Mg2+","reference: high Mg2+ state, higher = stronger signaling",fold induction,6.64

# Excerpt of the above (sample 2):
Oligonucleotide,E-score
CCGTAAGG,0.144
ACTATCCA,-0.0302
GTTGCGGA,0.0999
TATCATGA,-0.0595
